Measured values from different studies.
Protocols differ between the studies behind these lines. Values joined by “and” are separate records of one study, mostly repeats; a detail may differ. ± gives the spread as reported.
CASP10: Caspase-10 (CASP10, Homo sapiens, UniProt Q92851)
HSD3B1: 3 beta-hydroxysteroid dehydrogenase/Delta 5-->4-isomerase type 1 (HSD3B1, Homo sapiens, UniProt P14060)

SMILES = CC(=O)N[C@@H](C(=O)N[C@@H](CCCC(=O)O)C(=O)N[C@@H](CCC1CCCCC1)C(=O)N[C@@H](CC(=O)O)C(=O)COC(=O)c1c(C)cccc1C)C1CCCCC1; target = CASP10; assay = enzyme activity, inhibitor; measurement = kinact/KI; value = 154000 M⁻¹ s⁻¹
SMILES = CC[C@H](C)[C@H](NC(=O)[C@@H](NC(=O)[C@H](CCCCN)NC(=O)[C@@H](N)[C@@H](C)O)C(C)C)C(=O)N[C@@H](CC(C)C)C(=O)N[C@@H](Cc1c[nH]cn1)C(N)=O; target = MAPT (Homo sapiens, UniProt P10636); assay = fibril formation, ThT fluorescence; setting = 0.1-fold of tau, 37 °C, together with: wild-type tau 10 µM, heparin; scale = relative to: untreated; measurement = aggregation half-time; value = 71 ± 7%
SMILES = CCN(CC)C(CO)c1cccc2c(C)c(C)oc12 (stereo not shown); target = LPAR1 (Homo sapiens, UniProt Q92633, W271A); assay = G-protein dissociation, agonist, NanoBiT; test system = HEK-293T; setting = 100 nM, W271A mutant; scale = relative to: baseline luminescence; measurement = fold change; value = 0.858 and 0.959 and 0.85 and 0.777 and 0.885 and 0.974
SMILES = CCCCCC(O)/C=C/C=O (stereo not shown); target = Mannose-1-phosphate guanylyltransferase regulatory subunit alpha (GMPPA, Homo sapiens, UniProt Q96IJ6); assay = competitive isoTOP-ABPP, measured: GMPPA cysteine peptide; test system = Ramos soluble proteome; setting = 100 µM, together with: iodoacetamide probe; scale = relative to: DMSO over compound-treated, higher = stronger cysteine blockade; measurement = isoTOP-ABPP competition ratio; value = 1.3
SMILES = CC(=O)N1C[C@H](O)C[C@H]1C(=O)N[C@H](C(=O)N[C@@H](CO)C(=O)N[C@@H](CC(=O)O)C(=O)COC(=O)c1c(C)cccc1C)C(C)(C)C; target = CASP10; assay = enzyme activity, inhibitor; measurement = kinact/KI; value = 260000 M⁻¹ s⁻¹
SMILES = O=c1c(-c2ccc(Cl)c(CN3CCCC3)c2)coc2cc(O)ccc12; target = HSD3B1; assay = [3H]-DHEA conversion; test system = LNCaP; setting = 0.1 µM, normalized to protein, unit not given; scale = relative to: vehicle; measurement = DHEA metabolism; value = 2.02
SMILES = Nc1c(NCO)c2ccccc2oc1=O; target = ADRA1A (Homo sapiens, UniProt P35348); assay = calcium mobilization, agonist; test system = COS-7; setting = 500 µM; scale = relative to: 3 µM ionomycin; measurement = agonist activity; value = 3.74 ± 0.35%
SMILES = CO[C@@H]1[C@H](O)[C@@H](COP(=O)(O)OP(=O)([O-])C(Cl)(Cl)P(=O)(O)OP(=O)(O)OC[C@H]2O[C@@H](n3cnc4c(=O)[nH]c(N)nc43)[C@H](O)[C@@H]2O)O[C@H]1n1c[n+](C)c2c(O)nc(N)nc21; target = DCPS (Homo sapiens, UniProt Q96C86); assay = substrate, HPLC; setting = concentration not given, 120 min; measurement = hydrolysis; value = 0%
SMILES = C=CC(=O)N1C[C@H](C)N(c2nc(OC[C@@]34CCCN3C[C@H](F)C4)nc3c(F)c(-c4ccc(F)c5sc(N)c(C#N)c45)c(C(F)(F)F)cc23)C[C@H]1C; target = GTPase KRas, GDP-bound (KRAS, Homo sapiens, UniProt P01116, Q61H); assay = SPR; measurement = dissociation rate constant koff; value = 0.000801 ± 0.00014 s⁻¹
SMILES = CC(=O)N1CCC[C@H]1C(=O)N[C@@H](CCC(N)=O)C(=O)N[C@@H](C)C(=O)N[C@@H](CC(=O)O)C(=O)COC(=O)c1c(C)cccc1C; target = CASP10; assay = enzyme activity, inhibitor; measurement = kinact/KI; value = 143000 M⁻¹ s⁻¹
SMILES = Fc1ccc(Nc2nc(NC3CCCCC3)c3cc(Br)ccc3n2)cc1F; target = ADRB2 (Homo sapiens, UniProt P07550, V152G); assay = β-arrestin2 recruitment, antagonist, BRET; setting = mutant V152G; scale = relative to: isoprenaline maximal response; measurement = maximal inhibition; value = 8.3%
SMILES = Cc1cc2nc3c(nc2cc1C)-c1ccc2[n]1[Au-]14[n]5c(ccc5-3)C=[N+]1CCC[N+]4=C2.F[P-](F)(F)(F)(F)F; target = DNA topoisomerase 1 (TOP1, Homo sapiens, UniProt P11387); measurement = Hill coefficient; value = 2.5
SMILES = CC(=O)N[C@H](C(=O)N[C@@H](CCC(=O)O)C(=O)N[C@@H](C)C(=O)N[C@@H](CC(=O)O)C(=O)COC(=O)c1c(C)cccc1C)C(C)C; target = CASP10; assay = enzyme activity, inhibitor; measurement = kinact/KI; value = 308000 M⁻¹ s⁻¹
SMILES = O=C1c2sc(-c3ccc(N4CCC(F)C4)nc3F)nc2CCN1c1cccnc1 (stereo not shown); target = BRS3 (Homo sapiens, UniProt P32247); assay = ligand displacement, radioligand; setting = 1 µM; measurement = inhibition; value = 1%
SMILES = C=CC(=O)N1CCCC(n2c(=O)c3ncccc3n(Cc3ccc(Oc4ccccc4)cc3)c2=O)C1 (stereo not shown); target = GSPT1 (Homo sapiens, UniProt P15170); assay = thermal proteome profiling; test system = cell proteome; setting = treated; measurement = melting temperature; value = 49.9 °C and 53 °C
SMILES = CCCC[C@H](NC(C)=O)C(=O)N[C@@H](CCC(=O)O)C(=O)N[C@H](C(=O)N[C@@H](CC(=O)O)C(=O)COC(=O)c1c(C)cccc1C)[C@@H](C)O; target = Caspase-8 (CASP8, Homo sapiens, UniProt Q14790); assay = enzyme activity, inhibitor; measurement = kinact/KI; value = 664000 M⁻¹ s⁻¹
SMILES = C#CCOC(=O)[C@]1(C)C=C(C(=O)OC(C)(C)C)C(=O)CC1; target = MAPK8 (Homo sapiens, UniProt P45983); assay = enzyme activity, D-SENSOR; setting = 133.3 µM, mean of replicates; measurement = normalized kinase activity; value = 0.282
SMILES = O=c1c(-c2ccc(Cl)c(OCCN3CCOCC3)c2)coc2cc(O)ccc12; target = HSD3B1; assay = [3H]-DHEA conversion; test system = LNCaP; setting = 0.1 µM, normalized to protein, unit not given; scale = relative to: vehicle; measurement = DHEA metabolism; value = 1.86
SMILES = CC(=O)N[C@@H](CC(=O)O)C(=O)N[C@@H](Cc1ccc(I)cc1)C(=O)N[C@@H](C)C(=O)N[C@@H](CC(=O)O)C(=O)COC(=O)c1c(C)cccc1C; target = CASP10; assay = enzyme activity, inhibitor; measurement = kinact/KI; value = 246000 M⁻¹ s⁻¹
SMILES = CCCCCCCO[C@H]1O[C@H](CO)[C@@H](O)[C@H](O)[C@@H]1O; target = Type 1 fimbrin D-mannose specific adhesin, lectin domain (fimH, Escherichia coli K-12, UniProt P08191); assay = binding, isothermal titration calorimetry; setting = 37 °C, individual direct titrations; measurement = ΔG; value = -10.6 kcal/mol and -10.5 kcal/mol
SMILES = CC[C@H](C)[C@H](NC(=O)[C@@H](NC(=O)[C@@H](NC(=O)[C@@H](NC(=O)[C@@H](N)CCCCN)C(C)C)C(C)C)C(C)C)C(=O)N[C@H](C(N)=O)[C@@H](C)O; target = Microtubule-associated protein tau, PHF6* peptide (MAPT, Homo sapiens, UniProt P10636); assay = fibril formation, ThT fluorescence; setting = 5-fold of peptide, 240 min, pH 7.4, together with: Ac-PHF6* 25 µM, heparin; scale = relative to: untreated; measurement = ThT fluorescence; value = 1 ± 1%
SMILES = CC[C@H](C)[C@@H]1NC(=O)[C@H](Cc2ccccc2)NC(=O)[C@H](CCC(=O)O)NC(=O)[C@H](CCCNC(=N)N)NC(=O)CNC(=O)[C@@H](NC(=O)[C@H](CC(C)C)NC(=O)[C@H](CCCNC(=N)N)NC(=O)[C@@H](NC(=O)CNC(=O)[C@H](Cc2ccc(O)cc2)NC(=O)[C@@H]2CCCN2C(=O)[C@H](C)NC(=O)[C@H](C)NC(=O)[C@@H](N)CCCNC(=N)N)C(C)C)CSSC[C@@H]2NC(=O)[C@@H](NC(=O)[C@H](CO)NC(=O)[C@H](CO)NC(=O)[C@H](CO)NC(=O)[C@H](CC(C)C)NC(=O)CNC(=O)[C@H](C)NC(=O)[C@H](CC(C)C)NC(=O)[C@@H](NC(=O)[C@@H](N)CC(=O)O)C(C)C)CSSC[C@H](NC(=O)CNC(=O)[C@H](Cc3c[nH]c4ccccc34)NC(=O)[C@H](CCCCN)NC2=O)C(=O)N[C@@H](CO)C(=O)N[C@@H](CCCCN)C(=O)N[C@@H](CO)C(=O)N[C@@H](CCC(=O)O)C(=O)N[C@@H]([C@@H](C)CC)C(=O)N[C@@H](CO)C(=O)N[C@@H](CO)C(=O)N[C@@H](CC(C)C)C(=O)N[C@H](C(=O)O)CSSC[C@@H](C(=O)NCC(=O)NCC(=O)N[C@@H](CO)C(=O)N[C@@H](CCCNC(=N)N)C(=O)N[C@@H](Cc2c[nH]c3ccccc23)C(=O)O)NC(=O)[C@H]([C@@H](C)O)NC(=O)[C@H](Cc2ccccc2)NC(=O)[C@H]([C@@H](C)CC)NC(=O)[C@H](C(C)C)NC(=O)[C@H](C)NC(=O)[C@H](CCCNC(=N)N)NC1=O; target = RXFP4 (Homo sapiens, UniProt Q8TDU9, F291A); setting = F291A mutant, unit not given; scale = relative to: wild type; measurement = ΔpEC50; value = -0.415 and -0.432 and -1.09

Some of these lines once more:
SMILES = CC(=O)N[C@@H](CC(=O)O)C(=O)N[C@@H](Cc1ccc(I)cc1)C(=O)N[C@@H](C)C(=O)N[C@@H](CC(=O)O)C(=O)COC(=O)c1c(C)cccc1C; target = CASP10; assay = enzyme activity, inhibitor; measurement = kinact/KI; value = 246000 M⁻¹ s⁻¹
